# Experimental data collected from several papers.
# Parts stem from different laboratories: compare values within a part only.

# Sample 1
# Target: Histone acetyltransferase KAT6A, winged helix 2, GST fusion (KAT6A, Homo sapiens, UniProt Q92794, residues 85-181)
# Method: protein binding microarray
# Form: double-stranded DNA, one strand shown
# Matrix: in vitro
# Concentration: not given
# Setting: 8-mer, flanks averaged, mean of 2 arrays, mostly near background
# Reference: not given
# Direction: higher = stronger binding
# Construct (chain): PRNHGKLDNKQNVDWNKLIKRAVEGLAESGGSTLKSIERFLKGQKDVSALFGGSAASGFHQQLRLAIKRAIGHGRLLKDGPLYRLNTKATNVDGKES
Sequence,E-score
ACAGAAAA,0.0929
ATTATGTA,0.0261
AATTCGAG,0.0227
GATAGACA,-0.122
ACTCGACT,-0.144
GAACCAGC,0.123
AAGAGCCT,-0.222
AAACGAGG,0.0647
ACGTATTC,-0.128
CCCCTTGC,-0.0478
AATAATTG,-0.0386
ACGCGTCC,0.0246
AAGTCCCT,-0.184
AGACCTCG,0.1
CTAGAAAG,-0.114
GAAGAGTA,-0.0868
CGTTGGAA,0.0172
CAGCGCTG,0.0114

# Sample 2
# Target: RING finger protein unkempt homolog, zinc fingers 1-6, GST-SBP tag (UNK, Homo sapiens, UniProt Q9C0B0, residues 30-357)
# Method: RNA Bind-n-Seq
# Form: RNA
# Matrix: in vitro
# Concentration: not given
# Setting: RNA with constant flanks, human-mouse chimeric sites, ends assumed
# Reference: input RNA pool
# Direction: higher = stronger binding
# Shared flanks, not repeated: GGGAGUUCUACAGUCCGACGAUC … CAACAGAGGAUUGAGCAUCA
# Residues (chain): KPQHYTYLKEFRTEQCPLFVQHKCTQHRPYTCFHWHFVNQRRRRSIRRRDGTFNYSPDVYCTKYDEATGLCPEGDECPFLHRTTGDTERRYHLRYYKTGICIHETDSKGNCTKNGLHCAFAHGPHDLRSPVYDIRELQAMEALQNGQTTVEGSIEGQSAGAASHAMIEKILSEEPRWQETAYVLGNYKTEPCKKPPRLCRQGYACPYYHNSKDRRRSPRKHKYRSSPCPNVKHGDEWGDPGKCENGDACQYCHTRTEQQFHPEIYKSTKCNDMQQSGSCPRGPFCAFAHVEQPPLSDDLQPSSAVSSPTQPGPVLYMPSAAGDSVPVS
Sequence,bound/input enrichment
AAAGAGUGGAUAGAGUGUGCACACGGGAUCGGUGGGACCCGGGCGAAAAAGGAGUGCAAGAUAGAGUUCGAUGACUUCGAAGAGUGCUUGCUUCGGCACAAAACGAUGAGGCGAAUGCAU,0.366 ratio
CACACACUCUUCUGUGGGACCCUCAUCCUGCAGGCCCGGGCCUAUGUGGGACCGCACGUCCUGGCAGUGGUGACCCGCACAGGGUUCUGCACGGCAAAAGGGGGCCUGGUGAGCUCCAUC,0.0888 ratio
GUGCCCUUCUCGCUGCUGCGGAGCCCGAGCUGGGAACCAUUCCGGGACUGGUACCCUGCACACAGCCGCCUCUUCGAUCAAGCUUUCGGGGUGCCCCGGCUGCCGGAUGAGUGGUCGCAG,0.0537 ratio
GUUCGGCUUUGGGAUCAUGCCACAAUGACAGAAGUGAAAUCUCUGAAUUUUAAUAUGUCUGUUAGCAGUAUGGAAUAUAUUCCUGAAGGAGAGAUUUUGGUUAUUACUUAUGGACGAUCU,1.07 ratio
AAAGAUCUACUGAGGCAAGGCAGCAAAUUUAGGAGAGACAUUUCAACAAUAUUGAUAGAGUUAGGAUUCCAAAUUAAAAAGAAAACUAAAAGAUUGUACAUCAACAAAGCCAAUGUGUGG,2.55 ratio
GGAAGCACAAUGAUGGAGAUUGAUGGUGACAAAGGCAAGCAGGGCGGGCCCACCUACUACAUAGACACCAAUGCCCUCCGCGUGCCCAGGGAGAACAUGGAGGCCAUUUCACCUCUAAAG,0.232 ratio
GCAAAGGAUGAUGAGGCGGCAGCUGUUGCCCUUUCCUCUCUCGUUCAUGCUUUGGAUGAGUUAAACAUGGUCGCCAUAGUUCGAUAUGCUUAUGACAAAAGAGCUAAUCCUCAAGUUGGU,0.51 ratio
GACUUUGGAACUGGUCCUCGCAACGCAGCCUUCUAUAGCCCUCAUGGACAUAUAUUAGUAUUAGCUGGAUUUGGAAAUCUUCGAGGACAAAUGGAAGUAUGGGAUGUUAAAAACUACAAG,0.687 ratio
GCUGAAAAUGAAGAAGAGGCAGCUGAUGUCUGGUACAACCUGGGGCACAUAGCUGUGGGAAUCGGAGAUACAAACUUGGCCCACCAAUGCUUCAGGCUGGCUCUGGUCCACAACAACCAC,0.152 ratio
CUGGCCUGGCCCUCCCCAGGGGCCUCCUUUCGUAUAGUCACUGCUUCUGCUACGGAUACUUUCAGCUCCAAGUCCUGACUGGGUGGGGCACCCAUUUCAGGCAGAAGGUUUUGGUACCCU,0.205 ratio
AAAUCAUGUGUGUCCAAUAUUGAAAGUGCUUUAUCUACACUCCAGUAUGUAAGCAGUAUAGUAGUUUCUUUAGAGAAUAGGUCAGCCAUUGUGAAGUACAAUGCAAGCUUAGUCACUCCA,6.66 ratio

# Sample 3
# Target: Fragile X messenger ribonucleoprotein 1, C-terminal low-complexity region (Fmr1, Mus musculus, UniProt P35922)
# Method: RNA Bind-n-Seq
# Form: RNA
# Matrix: in vitro
# Concentration: 200 nM
# Setting: whole 134-nt RNA, ends assumed
# With: 150 mM LiCl
# Reference: input library
# Direction: higher = stronger binding
# Each molecule: 7-deaza-guanosine replaces G
# Shared flanks, not repeated: GGGAGUUCUACAGUCCGACGAUC … UGGAAUUCUCGGGUGUCAAGG
Sequence,log2 enrichment
GCAGGAAGUAAAAACAAAUGGAAAUGAAACGGAUAGUGGCAGGGGUGGGGGUUGCUAAGGAAAGGGUGGGAUGGGAGUGGGUAAAGAGUU,1.7
GUCCUGUGCUACACAUCGUAUGUACCGAAUCGGGAAAAAAAGGGAGGGAAAAAAAGGGAAAGUAUUAUGUUACGCCGUUCGGAUCUGCAC,0.704
AAGUCCUGUGCUACACAUCGUAUGUACCGAAUCGGGAAAAGGAAAAGGGAAAAGGGGAAAGUAUUAUGUUACGCCGUUCGGAUCUGCACU,0.377
GGGUGGACACUGACGAGCUGGACAGCAACGUGGACGACUGGGAAGAGGAGACCAUUGAGUUCUUCGUCACUGAAGAAAUCAUUCCCCUCG,-3
AGUCCUGUGCUACACAUCGUAUGUACCGAAUCGGUUUUUGGAAAAAGGUUUUUUUGGAAAGUAUUAUGUUACGCCGUUCGGAUCUGCACU,-3.18
CUGUGCUACACAUCGUAUGUACCGAAUCGGGCCCCCCCGGCCCCCCCGGGGCCCCCCCGGGGAAAGUAUUAUGUUACGCCGUUCGGAUCU,0.252
AAGUCCUGUGCUACACAUCGUAUGUACCGAAUCGGUUUUGGUUUUGGGGUUUUGGGAAAGUAUUAUGUUACGCCGUUCGGAUCUGCACUU,-1.75
CAAGUCCUGUGCUACACAUCGUAUGUACCGAAUCGGGGAAAGGGGAGGGGAGGGGAAAGUAUUAUGUUACGCCGUUCGGAUCUGCACUUC,0.543
CACAGACAACACGCACCCACACAGACACAGAGGGAAGGGGUUGGGAUGAGGACAGGGUGCACAGCAGGGCGGGGUAGGACCCCAGCCCCU,0.291
UGGGAGGUGUAUUUUGUUUAUUUUUUUAGCUCAUUUCCAGGGGUGGGAAUUUUUUUUUAAUAUGUGUCAUGAAUAAAGUUGUUUUUGAAA,0.457
ACCAUGCAGGUGGGCAUCUUUGGGAAGUGGGGCAAGGGGGGGAUAGGGAGGAGGGUAACACUUUGGGAACAGGUGGUCCCAGGUCGUUUC,0.958

# Sample 4
# Target: Interferon regulatory factor 5, full length, phosphomimetic (IRF5, Homo sapiens, UniProt Q13568-2, residues 1-514, S451D/S453D/S456D/S462D)
# Method: protein-binding microarray
# Form: double-stranded DNA, one strand shown
# Matrix: in vitro
# Concentration: 940 nM top
# Setting: 60-bp whole probe
# With: salmon DNA 0.4 mg/ml
# Reference: random background probes
# Direction: higher = stronger binding
# Shared flanks, not repeated: GCCTAGCAC … GTCTTGATTCGCTTGACGCTGCTG
Sequence,fitted relative affinity
TTGCTTCCCAATTCTCTTTTCGTGCTA,1.71 z-score
GGCGATTTCGGGTTTCGAGACGTGCTA,2.52 z-score
GACGAACTGAGTTTCGAGTCGTGCTAG,5.4 z-score
GACGGACCGCTACTGCTGACGTGCTAG,-0.647 z-score
TTCGGTATCCTTCTCCTTTAGTGCTAG,0.985 z-score
GACGGTATCGGACTTGGGACGTGCTAG,2.13 z-score
GACGGTATCGGACAGGGGACGTGCTAG,2.36 z-score
CTAGAACTGAGTCTCGATTAGTGCTAG,2.78 z-score
TTAGATTTCAGCTTCGATTAGTGCTAG,-0.00767 z-score
GACGGACTGCTTCACCTGACGTGCTAG,-0.552 z-score
GTACCACTCCAGTTCTGGGAGTGCTAG,0.499 z-score
GACGATACCAGACTGGAGACGTGCTAG,1.15 z-score
GCCGGTTTCCTTTCCCTGACGTGCTAG,2.19 z-score
TTTCGTATCTTCATTGTCATGTGCTAG,8.32 z-score
TTAGATGTCGGGTATCGATTAGTGCTA,2.32 z-score
GACGATTTCAGTCTGGAGACGTGCTAG,0.0426 z-score
TCATTTTGCTTTCTTTTACTGTGCTAG,2.01 z-score
TTAGATTTCAGAATGGATTAGTGCTAG,-0.0773 z-score
TTAGGTATCGTACTGGGTTAGTGCTAG,2.49 z-score
GACGGTATCGGTTACGGGACGTGCTAG,8.41 z-score
GACGGTCTCCTAGTGCTGACGTGCTAG,-0.556 z-score
CTCTACATGGGTATAGAGTAGTGCTAG,-0.63 z-score
GACGCTTTCAGACTGGAGACGTGCTAG,-0.193 z-score
TTAGGTATCCTTTTCCATTAGTGCTAG,0.866 z-score
GACGGTATCGGTTGCGGGACGTGCTAG,9.33 z-score

# Excerpt of the above (sample 2):
Sequence,bound/input enrichment
GGAAGCACAAUGAUGGAGAUUGAUGGUGACAAAGGCAAGCAGGGCGGGCCCACCUACUACAUAGACACCAAUGCCCUCCGCGUGCCCAGGGAGAACAUGGAGGCCAUUUCACCUCUAAAG,0.232 ratio
GUGCCCUUCUCGCUGCUGCGGAGCCCGAGCUGGGAACCAUUCCGGGACUGGUACCCUGCACACAGCCGCCUCUUCGAUCAAGCUUUCGGGGUGCCCCGGCUGCCGGAUGAGUGGUCGCAG,0.0537 ratio
AAAGAUCUACUGAGGCAAGGCAGCAAAUUUAGGAGAGACAUUUCAACAAUAUUGAUAGAGUUAGGAUUCCAAAUUAAAAAGAAAACUAAAAGAUUGUACAUCAACAAAGCCAAUGUGUGG,2.55 ratio
AAAUCAUGUGUGUCCAAUAUUGAAAGUGCUUUAUCUACACUCCAGUAUGUAAGCAGUAUAGUAGUUUCUUUAGAGAAUAGGUCAGCCAUUGUGAAGUACAAUGCAAGCUUAGUCACUCCA,6.66 ratio
GCUGAAAAUGAAGAAGAGGCAGCUGAUGUCUGGUACAACCUGGGGCACAUAGCUGUGGGAAUCGGAGAUACAAACUUGGCCCACCAAUGCUUCAGGCUGGCUCUGGUCCACAACAACCAC,0.152 ratio
GCAAAGGAUGAUGAGGCGGCAGCUGUUGCCCUUUCCUCUCUCGUUCAUGCUUUGGAUGAGUUAAACAUGGUCGCCAUAGUUCGAUAUGCUUAUGACAAAAGAGCUAAUCCUCAAGUUGGU,0.51 ratio
